Experimental data pooled from the literature.
A part holds a random share of what one study measured.
Sequence of UniProt P49759 (whole entry, looked up): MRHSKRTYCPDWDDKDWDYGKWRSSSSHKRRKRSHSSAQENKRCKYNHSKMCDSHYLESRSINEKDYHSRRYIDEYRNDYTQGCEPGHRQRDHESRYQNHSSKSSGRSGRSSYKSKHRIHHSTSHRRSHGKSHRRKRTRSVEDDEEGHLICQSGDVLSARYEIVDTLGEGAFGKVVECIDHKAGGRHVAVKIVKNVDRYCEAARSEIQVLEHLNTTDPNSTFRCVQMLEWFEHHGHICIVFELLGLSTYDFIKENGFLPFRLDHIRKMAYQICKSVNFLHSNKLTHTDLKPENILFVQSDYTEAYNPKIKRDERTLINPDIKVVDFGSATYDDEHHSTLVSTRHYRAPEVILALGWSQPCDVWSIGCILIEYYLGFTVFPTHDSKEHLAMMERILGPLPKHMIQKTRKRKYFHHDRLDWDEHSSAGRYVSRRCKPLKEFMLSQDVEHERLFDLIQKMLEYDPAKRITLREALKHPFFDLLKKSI
Sequence of UniProt Q05655 (whole entry, looked up): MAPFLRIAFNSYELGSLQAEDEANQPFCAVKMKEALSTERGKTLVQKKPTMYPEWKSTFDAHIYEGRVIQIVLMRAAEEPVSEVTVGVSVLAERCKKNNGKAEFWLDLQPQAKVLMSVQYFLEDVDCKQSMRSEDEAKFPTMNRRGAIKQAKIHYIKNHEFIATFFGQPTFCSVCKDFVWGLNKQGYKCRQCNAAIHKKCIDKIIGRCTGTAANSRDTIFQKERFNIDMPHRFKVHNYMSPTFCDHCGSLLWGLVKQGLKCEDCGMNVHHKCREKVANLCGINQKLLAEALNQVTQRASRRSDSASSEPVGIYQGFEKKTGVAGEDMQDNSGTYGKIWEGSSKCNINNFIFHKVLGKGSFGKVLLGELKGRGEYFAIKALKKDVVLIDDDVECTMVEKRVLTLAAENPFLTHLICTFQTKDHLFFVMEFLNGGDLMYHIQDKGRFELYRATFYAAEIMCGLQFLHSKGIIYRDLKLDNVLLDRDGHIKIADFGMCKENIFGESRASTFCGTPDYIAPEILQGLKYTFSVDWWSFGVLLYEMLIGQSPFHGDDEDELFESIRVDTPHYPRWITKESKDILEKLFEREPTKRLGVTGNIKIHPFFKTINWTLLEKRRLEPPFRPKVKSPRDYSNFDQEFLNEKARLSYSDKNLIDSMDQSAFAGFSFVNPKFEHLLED
Sequence of UniProt Q8WXR4 (whole entry, looked up): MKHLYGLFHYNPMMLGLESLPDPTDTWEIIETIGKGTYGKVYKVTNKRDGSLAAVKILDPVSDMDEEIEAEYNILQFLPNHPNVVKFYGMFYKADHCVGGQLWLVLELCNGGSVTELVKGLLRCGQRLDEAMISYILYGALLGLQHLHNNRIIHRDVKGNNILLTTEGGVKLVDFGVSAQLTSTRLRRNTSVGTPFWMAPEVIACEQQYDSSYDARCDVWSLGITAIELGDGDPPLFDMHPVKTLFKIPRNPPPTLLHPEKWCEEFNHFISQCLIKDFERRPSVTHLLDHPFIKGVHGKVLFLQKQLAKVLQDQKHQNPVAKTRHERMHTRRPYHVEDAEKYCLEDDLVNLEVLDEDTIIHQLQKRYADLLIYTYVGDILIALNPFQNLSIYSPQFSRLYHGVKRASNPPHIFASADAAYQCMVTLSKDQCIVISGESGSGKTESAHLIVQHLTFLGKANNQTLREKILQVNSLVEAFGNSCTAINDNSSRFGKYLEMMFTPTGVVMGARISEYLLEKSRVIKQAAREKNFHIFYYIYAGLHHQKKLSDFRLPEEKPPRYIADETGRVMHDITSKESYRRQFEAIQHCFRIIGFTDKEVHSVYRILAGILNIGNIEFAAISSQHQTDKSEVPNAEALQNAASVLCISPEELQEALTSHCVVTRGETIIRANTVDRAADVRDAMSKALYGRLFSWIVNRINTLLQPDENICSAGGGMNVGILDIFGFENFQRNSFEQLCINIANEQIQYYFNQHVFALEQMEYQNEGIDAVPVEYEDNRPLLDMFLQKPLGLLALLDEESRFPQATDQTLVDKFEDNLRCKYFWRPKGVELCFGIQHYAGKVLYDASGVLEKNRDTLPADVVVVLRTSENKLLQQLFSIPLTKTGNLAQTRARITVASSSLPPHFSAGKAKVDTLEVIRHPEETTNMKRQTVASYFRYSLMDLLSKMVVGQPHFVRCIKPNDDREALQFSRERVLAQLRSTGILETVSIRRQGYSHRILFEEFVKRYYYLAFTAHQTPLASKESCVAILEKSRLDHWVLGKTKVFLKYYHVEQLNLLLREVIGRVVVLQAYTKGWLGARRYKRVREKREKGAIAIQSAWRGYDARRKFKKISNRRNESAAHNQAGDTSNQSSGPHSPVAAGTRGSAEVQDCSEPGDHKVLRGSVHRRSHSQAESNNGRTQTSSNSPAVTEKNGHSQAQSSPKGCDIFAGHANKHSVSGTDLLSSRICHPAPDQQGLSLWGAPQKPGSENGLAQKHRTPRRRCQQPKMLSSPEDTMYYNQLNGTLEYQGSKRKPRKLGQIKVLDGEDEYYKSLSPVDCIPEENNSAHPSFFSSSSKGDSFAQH
Sequence of UniProt O75582 (whole entry, looked up): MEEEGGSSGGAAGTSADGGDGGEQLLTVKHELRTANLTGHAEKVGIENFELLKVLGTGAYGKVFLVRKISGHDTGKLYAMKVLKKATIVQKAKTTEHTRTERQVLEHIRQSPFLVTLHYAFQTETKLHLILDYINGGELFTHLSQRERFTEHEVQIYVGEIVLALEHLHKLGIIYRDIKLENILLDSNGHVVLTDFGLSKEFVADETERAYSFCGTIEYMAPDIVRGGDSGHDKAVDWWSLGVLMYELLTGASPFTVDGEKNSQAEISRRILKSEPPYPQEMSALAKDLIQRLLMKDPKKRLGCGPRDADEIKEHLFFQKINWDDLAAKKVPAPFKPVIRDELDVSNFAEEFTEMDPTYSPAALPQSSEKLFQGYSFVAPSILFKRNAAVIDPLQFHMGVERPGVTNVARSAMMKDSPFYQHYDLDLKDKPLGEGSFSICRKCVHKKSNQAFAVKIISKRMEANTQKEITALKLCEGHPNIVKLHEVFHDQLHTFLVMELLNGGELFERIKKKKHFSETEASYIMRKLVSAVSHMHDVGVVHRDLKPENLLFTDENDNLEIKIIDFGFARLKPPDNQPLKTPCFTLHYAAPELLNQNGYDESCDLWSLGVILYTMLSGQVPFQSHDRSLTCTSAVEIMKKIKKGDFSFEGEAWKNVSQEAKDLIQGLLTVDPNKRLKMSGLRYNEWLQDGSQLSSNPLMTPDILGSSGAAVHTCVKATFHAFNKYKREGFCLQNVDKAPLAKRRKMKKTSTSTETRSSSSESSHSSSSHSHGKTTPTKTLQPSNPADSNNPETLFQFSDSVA

Study 1
Target: Calcium/calmodulin-dependent protein kinase type II subunit alpha (CAMK2A, Homo sapiens, UniProt Q9UQM7)
Sequence of UniProt Q9UQM7 (whole entry, looked up): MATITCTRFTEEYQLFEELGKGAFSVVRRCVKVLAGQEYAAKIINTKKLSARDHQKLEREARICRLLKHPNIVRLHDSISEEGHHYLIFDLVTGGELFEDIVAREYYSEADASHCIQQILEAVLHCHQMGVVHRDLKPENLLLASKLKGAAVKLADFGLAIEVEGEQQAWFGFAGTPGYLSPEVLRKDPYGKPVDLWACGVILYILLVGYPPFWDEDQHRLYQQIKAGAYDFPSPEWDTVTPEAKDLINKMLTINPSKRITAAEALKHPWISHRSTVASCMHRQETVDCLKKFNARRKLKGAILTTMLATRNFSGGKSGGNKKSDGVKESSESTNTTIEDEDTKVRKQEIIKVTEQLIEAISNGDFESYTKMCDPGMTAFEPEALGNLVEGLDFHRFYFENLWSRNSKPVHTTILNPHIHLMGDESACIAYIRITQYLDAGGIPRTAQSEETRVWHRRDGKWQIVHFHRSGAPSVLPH
Effect on: enzyme activity
Mode: inhibitor
Tested at: 10 µM
`CC1=Nc2ccc(Cl)cc2S(=O)(=O)N1` has an inhibition of -11%.
The inhibition of `Nc1ncc[nH]1` is reported as -71%.
With `COc1c(O)cc2oc(-c3ccccc3)cc(=O)c2c1O` the inhibition was -7%.
`CCN(CC)CCOc1ccc(C(=C(Cl)c2ccccc2)c2ccccc2)cc1` gave an inhibition of 7%.
The inhibition of `c1ccc(CSSCc2ccccc2)cc1` is reported as -19%.
`Cn1c(=O)ccn([C@@H]2O[C@H](CO)[C@@H](O)[C@H]2O)c1=O` has an inhibition of 4%.
`CCCC[C@H](NC(=O)[C@@H]1[C@@H]2[C@H](CN1C(=O)[C@@H](NC(=O)NC1(CS(=O)(=O)C(C)(C)C)CCCCC1)C(C)(C)C)C2(C)C)C(=O)C(=O)NC1CC1` gave an inhibition of -10%.

Study 2
Target: Tyrosine-protein kinase Yes (YES1, Homo sapiens, UniProt P07947)
Sequence of UniProt P07947 (whole entry, looked up): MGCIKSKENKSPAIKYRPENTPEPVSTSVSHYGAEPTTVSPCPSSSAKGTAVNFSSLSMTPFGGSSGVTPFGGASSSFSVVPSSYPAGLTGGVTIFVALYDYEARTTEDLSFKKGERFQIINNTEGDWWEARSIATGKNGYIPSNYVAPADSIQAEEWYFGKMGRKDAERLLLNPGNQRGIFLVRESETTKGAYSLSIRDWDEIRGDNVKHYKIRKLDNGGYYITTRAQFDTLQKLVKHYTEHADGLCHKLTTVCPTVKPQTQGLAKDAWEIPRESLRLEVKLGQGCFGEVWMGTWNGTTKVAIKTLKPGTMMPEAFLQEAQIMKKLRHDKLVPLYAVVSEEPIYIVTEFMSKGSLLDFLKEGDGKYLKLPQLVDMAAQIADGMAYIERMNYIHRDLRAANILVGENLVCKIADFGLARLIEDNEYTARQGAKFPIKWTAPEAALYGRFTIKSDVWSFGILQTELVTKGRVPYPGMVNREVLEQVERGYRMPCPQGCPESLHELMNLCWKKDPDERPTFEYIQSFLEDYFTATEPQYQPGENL
Effect on: enzyme activity
Mode: inhibitor
Tested at: 0.5 µM
Reference: control
With `Cc1nc(-c2ccccc2)c(-c2ccncc2)o1` the remaining activity was 101%.
For `Nc1ccc2ncnc(NCCc3ccc(Oc4ccccc4)cc3)c2c1`, the remaining activity was 112%.
For `Oc1ccc(-c2nc(-c3ccncc3)c(-c3ccc(F)cc3)[nH]2)cc1`, the remaining activity was 84.7%.
With `COc1ccc(OC)c2c(=S)c3ccccc3[nH]c12` the remaining activity was 89.2%.
`COc1cc2nccc(Oc3ccc(NC(=S)NC(=O)c4ccccc4C)cc3)c2cc1OC` gave a remaining activity of 23.9%.
`COc1cc2ncnc(Nc3ccc(Oc4ccccc4)cc3)c2cc1OC` has a remaining activity of 7.96%.
For `CN(C)c1ccc(C=C2C(=O)Nc3ccccc32)cc1`, the remaining activity was 89.3%.
For `COc1cc2ncnc(Nc3ccc(F)c(Cl)c3)c2cc1OCCCN1CCOCC1`, the remaining activity was 74.4%.
The remaining activity of `N#CC(C#N)=C(N)/C(C#N)=C/c1ccc(O)cc1` is reported as 100%.
With `CC(C)[C@H](CO)Nc1nc(Nc2cc(N)cc(Cl)c2)c2ncn(C(C)C)c2n1` the remaining activity was 7.03%.
The remaining activity of `CCOC(=O)c1c(C)[nH]c(/C=C2\C(=O)Nc3ccccc32)c1C` is reported as 68.3%.
`COc1ccc(C(=O)Nc2sc3c(c2C(N)=O)CCCC3)cc1OC` has a remaining activity of 88.3%.
`NCCNc1ncc(C(N)=O)c(Nc2cccc(C(F)(F)F)c2)n1` has a remaining activity of 84.7%.
For `C#Cc1cccc(Nc2ncnc3cc(OCCOC)c(OCCOC)cc23)c1`, the remaining activity was 68.3%.
For `O=S(=O)(c1cccc2cnccc12)N1CCCNCC1`, the remaining activity was 96.5%.

Study 3
Compound: CO[C@@H]1[C@H](N(C)C(=O)c2ccccc2)C[C@H]2O[C@]1(C)n1c3ccccc3c3c4c(c5c6ccccc6n2c5c31)C(=O)NC4
Mode: inhibitor
Tested at: 1 µM
Myosin-IIIb (MYO3B, Homo sapiens, UniProt Q8WXR4); enzyme activity — inhibition: 0%.
The inhibition was 87% (CLK1 (Homo sapiens, UniProt P49759); enzyme activity).
The inhibition was 94% (PRKCD (Homo sapiens, UniProt Q05655); enzyme activity).
It gave 50% for inhibition (Ribosomal protein S6 kinase alpha-5, N-terminal kinase domain (RPS6KA5, Homo sapiens, UniProt O75582)).

Study 4
Effect on: AlphaScreen signal
Method: AlphaScreen counter screen
Medium: His6 peptide without bromodomain
Tested at: 50 µM
Setting: assay interference check
The inhibition of `O=C(O)c1cc(N=Nc2ccc(S(=O)(=O)Nc3ccccn3)cc2)ccc1O` is reported as 11.9%.
`CN(C)c1ccc(/C=C2\C(=O)Nc3ccccc32)cc1` has an inhibition of 83.1%.
For `COc1cc(N2CCC(N3CCN(C)CC3)CC2)ccc1Nc1ncc(Cl)c(Nc2ccccc2P(C)(C)=O)n1`, the inhibition was 27.7%.
With `CC(C)n1cnc2c(NCc3ccccc3)nc(NCCCO)nc21` the inhibition was 19.4%.
`Nc1ncnc2c1c(I)cn2[C@@H]1O[C@H](CO)[C@@H](O)[C@H]1O` has an inhibition of 6.95%.
`CC[C@H](CO)Nc1nc(NCc2ccccc2)c2ncn(C(C)C)c2n1` has an inhibition of 16%.

For quick reference, copied from above (study 2):
`COc1ccc(C(=O)Nc2sc3c(c2C(N)=O)CCCC3)cc1OC` has a remaining activity of 88.3%.
With `COc1ccc(OC)c2c(=S)c3ccccc3[nH]c12` the remaining activity was 89.2%.
For `Oc1ccc(-c2nc(-c3ccncc3)c(-c3ccc(F)cc3)[nH]2)cc1`, the remaining activity was 84.7%.
The remaining activity of `CCOC(=O)c1c(C)[nH]c(/C=C2\C(=O)Nc3ccccc32)c1C` is reported as 68.3%.
For `C#Cc1cccc(Nc2ncnc3cc(OCCOC)c(OCCOC)cc23)c1`, the remaining activity was 68.3%.
